# Assay results gathered from unrelated publications.
# Each numbered part is a random draw from the data of one study; scales do not carry over between parts.

# Block 1
# Target: RNA binding protein fox-1 homolog 2, RRM domain, GST-SBP tag (RBFOX2, Homo sapiens, UniProt O43251-10, residues 100-194)
# Technique: RNA Bind-n-Seq
# Molecule type: RNA
# Medium: in vitro
# Concentration: 365 nM
# Setting: natural RNA segment, single round, ends assumed
# Baseline: no-protein control
# Direction: higher = stronger binding
# Construct (chain): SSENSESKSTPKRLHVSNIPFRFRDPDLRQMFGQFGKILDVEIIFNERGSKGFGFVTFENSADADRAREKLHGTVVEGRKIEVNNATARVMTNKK
Oligonucleotide,RBNS enrichment (R)
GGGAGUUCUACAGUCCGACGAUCAUUCCCUUUGACUUCAGCUGCCUGAAACAGCCAUGUCCAAGUUCUUCACCUCUAUCCAAAGAACUUGAUUUGCAUGGAUUUUGGAUAAAUCAUUUCAGUAUCAUCUCCAUUGGAAUUCUCGGGUGCCAA,1.42
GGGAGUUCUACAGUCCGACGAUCUCCCCCAAGUUAAUCUUCCAUCUUUGUUUUUGGGUUUCAAUGAAGGCUUUACAUAAGAAAUUAUUAAACAAAACAAGGGGGGCAAUAAAUGUAUAUAACAUUAAUAAUGUUGGAAUUCUCGGGUGCCAA,0.466
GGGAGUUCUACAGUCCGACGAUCUGUGGCAAUGGGGGUUUUUAUUGCCAUUCAUUCUUUAGCAACCUGGACUGCCAUCUUGGCAGACCUGAACUUUGCUGAGCCUGAUUUUCACAAAGGAGUAGGCCAUGUAGUGGAAUUCUCGGGUGCCAA,0.256
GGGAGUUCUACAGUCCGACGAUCCUUUUGCCCUCUCCUCUCCCCACCCCCCAGAAACAGAUGACGUUGUACAAUAAAGGACUUUGCGAGUCCAUGGGUGCCUGCAGCCCCCAUGCAUGCAGUCAGGUCCUCAGUGGAAUUCUCGGGUGCCAA,0.894
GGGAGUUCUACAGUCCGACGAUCUAAUUUCUCAUUUAUUUGUCUAGAAAAUCCAUAAUGAUAUAGGACAUUUAUACCGAGUGAGAUCAUUAACAAUGAAAUUGAGAGAUUAGAGCAUCCUCACUGGGUGAUGGUGGAAUUCUCGGGUGCCAA,0.444
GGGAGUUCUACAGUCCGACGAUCCAUUUUGCUCAAAAGUUUUUAAGAAAUGACAACAAAAAAAGCAAGUUACAAGAAUGUGGCAAUUCUAUUUGUCCAAGAGCAUUCUUACACAACUUUCUUUUGUAAAUUUUUGGAAUUCUCGGGUGCCAA,0.586
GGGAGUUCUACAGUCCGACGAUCCAUUGCACUGCUCGCAGCUCCCUGCUCAGACUUCACCCCAAGCUGAAGCCUCCAGAGGGACAGCAGGGACGAGCCACACUCAACCCCCCCCCUGCACAUCAGGUCUGAGAUGGAAUUCUCGGGUGCCAA,0.351
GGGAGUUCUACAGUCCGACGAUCUCAGUCAGGAUGGAACAGUGCUACAAGCACCAGCCUGCCUCUGAGCAGUGCUCGGAACAGCUGAGGCCGUGGCGGGCUCCACUAACCCCCAGUGUUAUCGUGUUUUAUAGUGGAAUUCUCGGGUGCCAA,0.967
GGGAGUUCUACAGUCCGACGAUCCGGGGAUGAAGCAGUAGCUAGGUUGCUUAACCUCCCCUCUCCAGCAGAGGCAUAAUCCAGAUAAGUAGCAGAUGUCAUAUUUCAUAAGCUCUUUUGGCCUGGGUACAGCAUGGAAUUCUCGGGUGCCAA,13

# Block 2
# Target: Interferon regulatory factor 7, full length, phosphomimetic (IRF7, Homo sapiens, UniProt Q92985, residues 1-503, S101K/S471D/S472D/S475D/S476D/S477D/S483D/S484D/S487D)
# Technique: protein-binding microarray
# Molecule type: double-stranded DNA, one strand shown
# Medium: in vitro
# Concentration: 250 nM
# Setting: 60-bp whole probe
# Together with: salmon DNA 0.4 mg/ml
# Baseline: random background probes
# Direction: higher = stronger binding
# Constant ends, left off below: GCCTAGCAC … GTCTTGATTCGCTTGACGCTGCTG
# Residues (chain): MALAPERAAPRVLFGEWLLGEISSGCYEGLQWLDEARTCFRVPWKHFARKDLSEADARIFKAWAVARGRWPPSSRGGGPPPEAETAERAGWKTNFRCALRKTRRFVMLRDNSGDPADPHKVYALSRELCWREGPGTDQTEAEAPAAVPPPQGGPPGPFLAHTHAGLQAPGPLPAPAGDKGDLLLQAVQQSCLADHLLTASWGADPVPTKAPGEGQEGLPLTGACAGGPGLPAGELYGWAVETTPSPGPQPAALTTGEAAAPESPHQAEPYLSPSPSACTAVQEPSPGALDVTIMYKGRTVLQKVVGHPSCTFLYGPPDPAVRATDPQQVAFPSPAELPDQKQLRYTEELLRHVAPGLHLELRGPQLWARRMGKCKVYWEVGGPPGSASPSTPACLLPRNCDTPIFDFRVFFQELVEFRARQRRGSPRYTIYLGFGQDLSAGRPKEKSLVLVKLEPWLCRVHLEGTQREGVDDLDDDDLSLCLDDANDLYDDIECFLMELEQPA
Oligonucleotide,log fluorescence [z-score]
TCAGTTTTGAGTTTTCCACTGTGCTAG,1.31
GTGTTTGTCCCTATTTAAGAGTGCTAG,3.51
GCCGGTTCCCTTTTCCTGACGTGCTAG,3.15
TTAGGTTTCGGTCTCCGTTAGTGCTAG,8.93
TTAGATCTCGGACTGGATTAGTGCTAG,0.0362
TAAGGACTGCTTTTCCTTTAGTGCTAG,1.46
GAGGGACTGGGTATCGGGACGTGCTAG,0.131
GACGGTATCGGGTATTGGGACGTGCTA,0.011
GGCGGTTTCGGTCTCGGGACGTGCTAG,7.72
AATAGCTTTTCATTTTTTAACGTGCTA,0.756
TCACCTCCCTGTTTCCAACTGTGCTAG,0.612
GACGGACTGCTTTCCCTGACGTGCTAG,-0.0119
GACGTACTGGGGTTTCGAGACGTGCTA,2.03
CCCATTCCAGGGTTTTATGGAGTGCTA,0.807
TCATATATCATTTAATTACTGTGCTAG,0.856
TTAGGTTTGCTACTGCTTTAGTGCTAG,-0.162
GACGCTATCGGGACTGGAGACGTGCTA,-0.476
GACGATTTCGGGTTTCGAGAAGTGCTA,3.07
TCAGATTTTTAGTTAGAACTGTGCTAG,0.144
GCTCATCTGTCATGTTTGTCAGTGCTA,0.0641
TTAGGTTTCGACAATGGGTTAGTGCTA,2.69
TAAGAACTGGGGACTGGATTAGTGCTA,-0.132
TCATATAGGTTGTTTCTAACTGTGCTA,0.16
ATGTTTTTCATTTTTTTTCAGTGCTAG,1.91
TTAGATATCAGTCCCGATTAGTGCTAG,0.192

# Block 3
# Target: Histone acetyltransferase KAT6A, winged helix 2, GST fusion (KAT6A, Homo sapiens, UniProt Q92794, residues 85-181)
# Technique: protein binding microarray
# Molecule type: double-stranded DNA, one strand shown
# Medium: in vitro
# Concentration: not given
# Setting: 8-mer, flanks averaged, mean of 2 arrays, mostly near background
# Baseline: not given
# Direction: higher = stronger binding
# Residues (chain): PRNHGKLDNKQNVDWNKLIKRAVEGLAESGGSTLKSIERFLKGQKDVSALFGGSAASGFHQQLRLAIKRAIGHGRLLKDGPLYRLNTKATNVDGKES
Oligonucleotide,E-score
CACGGGCA,0.0736
GTTAGTCA,-0.0914
CCTTAACG,-0.05
AGGCTTTA,-0.194
AAAGCCAG,-0.0578
GTTGAAAA,-0.0519
CAGTTGGC,-0.0105
AAATACTA,0.00907
GAAGCTGA,0.108
GGAGAACC,0.0987
CCTTTTTC,0.108
AAAGCGAA,0.15
ATCAGTAA,-0.0169
CTAGAGCA,0.0367
AAGTGCGT,-0.138
GAAATCAC,0.181
CCTACAGG,-0.0851
ATCTGGAA,-0.0571
CTGGAGAC,0.0384
GACGGGAC,-0.0195
AAATGCTG,0.0634
AGCCACTC,-0.1

# Block 4
# Target: Ras GTPase-activating protein-binding protein 1, full length (G3BP1, Homo sapiens, UniProt Q13283)
# Sequence of UniProt Q13283 (whole entry, looked up): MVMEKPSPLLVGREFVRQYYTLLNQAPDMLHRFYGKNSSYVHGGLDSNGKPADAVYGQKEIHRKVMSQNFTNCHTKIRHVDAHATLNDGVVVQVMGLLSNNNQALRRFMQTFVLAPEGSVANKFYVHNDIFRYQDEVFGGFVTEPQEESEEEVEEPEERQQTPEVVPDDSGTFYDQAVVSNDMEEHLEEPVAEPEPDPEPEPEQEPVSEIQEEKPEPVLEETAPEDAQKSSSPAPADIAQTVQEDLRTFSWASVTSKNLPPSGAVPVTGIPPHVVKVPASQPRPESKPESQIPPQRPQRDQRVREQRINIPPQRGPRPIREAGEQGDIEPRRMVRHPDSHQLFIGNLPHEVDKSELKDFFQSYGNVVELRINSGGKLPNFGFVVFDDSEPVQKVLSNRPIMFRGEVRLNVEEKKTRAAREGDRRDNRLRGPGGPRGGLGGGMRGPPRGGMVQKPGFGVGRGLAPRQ
# Technique: RNA Bind-n-Seq
# Molecule type: RNA
# Medium: in vitro
# Concentration: 200 nM
# Setting: whole 134-nt RNA, ends assumed
# Together with: 150 mM LiCl
# Baseline: input library
# Direction: higher = stronger binding
# Library: 7-deaza-guanosine replaces G
Oligonucleotide,log2 enrichment
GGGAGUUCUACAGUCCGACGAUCUUCCUCAAGUCCUGUGCUACACAUCGUAUGUACCGAAUCGGAGGAGGUGGAAAGUAUUAUGUUACGCCGUUCGGAUCUGCACUUCCAGCAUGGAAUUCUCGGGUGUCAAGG,-2.24
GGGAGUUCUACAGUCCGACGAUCUCCUGUGCUACACAUCGUAUGUACCGAAUCGGGGAAAAAGGGGAGGGGUUUUUUUGGGGAAAGUAUUAUGUUACGCCGUUCGGAUCUGCAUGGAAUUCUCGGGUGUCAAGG,0.9
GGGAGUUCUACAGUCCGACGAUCAAGUCCUGUGCUACACAUCGUAUGUACCGAAUCGGGAAAAAAAGGGUUUGGGUGGGAAAGUAUUAUGUUACGCCGUUCGGAUCUGCACUUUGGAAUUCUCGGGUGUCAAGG,-0.934
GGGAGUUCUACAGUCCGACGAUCAAGUCCUGUGCUACACAUCGUAUGUACCGAAUCGGUUUGGUUUUUUUGGAAAAAGGAAAGUAUUAUGUUACGCCGUUCGGAUCUGCACUUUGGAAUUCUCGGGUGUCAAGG,-1.16
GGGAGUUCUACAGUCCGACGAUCUGGGAGGUGGAUUUUGUUUAUUUUUUUAGCUCAUUCCCAGGGGUGGGAAUUUUUUUUUAAUAUGUGUCAUGAAUAAAGUUGUUUUUGAAAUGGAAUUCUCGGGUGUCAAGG,-0.146
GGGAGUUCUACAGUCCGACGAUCACCAUGCAGGUGGGAAUCUUUGGGAAGUGGGGCAAGGGGGGGAUAGGGAGGGGGGUAACACUUUGGGAACAGGUGGUCCCAGGUCGUUUCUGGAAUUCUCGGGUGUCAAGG,0.136
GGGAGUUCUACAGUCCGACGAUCUCAAGUCCUGUGCUACACAUCGUAUGUACCGAAUCGGGGAAGGAAGGGAAGGGGAAAGUAUUAUGUUACGCCGUUCGGAUCUGCACUUCCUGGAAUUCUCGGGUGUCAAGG,-0.0949
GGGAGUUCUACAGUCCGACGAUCCAAGUCCUGUGCUACACAUCGUAUGUACCGAAUCGGUUUGGGGUUUGGGGUUUGGAAAGUAUUAUGUUACGCCGUUCGGAUCUGCACUUCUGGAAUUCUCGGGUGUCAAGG,-1.6

# For quick reference, copied from above (block 3):
Oligonucleotide,E-score
CACGGGCA,0.0736
AAAGCGAA,0.15
ATCAGTAA,-0.0169
CTGGAGAC,0.0384
GAAATCAC,0.181
AAAGCCAG,-0.0578
GACGGGAC,-0.0195
